Measured values of several laboratories.
A part holds a random share of what one study measured. Substitutions count along the parent as printed.
Chain of UniProt O15294 (whole entry, looked up): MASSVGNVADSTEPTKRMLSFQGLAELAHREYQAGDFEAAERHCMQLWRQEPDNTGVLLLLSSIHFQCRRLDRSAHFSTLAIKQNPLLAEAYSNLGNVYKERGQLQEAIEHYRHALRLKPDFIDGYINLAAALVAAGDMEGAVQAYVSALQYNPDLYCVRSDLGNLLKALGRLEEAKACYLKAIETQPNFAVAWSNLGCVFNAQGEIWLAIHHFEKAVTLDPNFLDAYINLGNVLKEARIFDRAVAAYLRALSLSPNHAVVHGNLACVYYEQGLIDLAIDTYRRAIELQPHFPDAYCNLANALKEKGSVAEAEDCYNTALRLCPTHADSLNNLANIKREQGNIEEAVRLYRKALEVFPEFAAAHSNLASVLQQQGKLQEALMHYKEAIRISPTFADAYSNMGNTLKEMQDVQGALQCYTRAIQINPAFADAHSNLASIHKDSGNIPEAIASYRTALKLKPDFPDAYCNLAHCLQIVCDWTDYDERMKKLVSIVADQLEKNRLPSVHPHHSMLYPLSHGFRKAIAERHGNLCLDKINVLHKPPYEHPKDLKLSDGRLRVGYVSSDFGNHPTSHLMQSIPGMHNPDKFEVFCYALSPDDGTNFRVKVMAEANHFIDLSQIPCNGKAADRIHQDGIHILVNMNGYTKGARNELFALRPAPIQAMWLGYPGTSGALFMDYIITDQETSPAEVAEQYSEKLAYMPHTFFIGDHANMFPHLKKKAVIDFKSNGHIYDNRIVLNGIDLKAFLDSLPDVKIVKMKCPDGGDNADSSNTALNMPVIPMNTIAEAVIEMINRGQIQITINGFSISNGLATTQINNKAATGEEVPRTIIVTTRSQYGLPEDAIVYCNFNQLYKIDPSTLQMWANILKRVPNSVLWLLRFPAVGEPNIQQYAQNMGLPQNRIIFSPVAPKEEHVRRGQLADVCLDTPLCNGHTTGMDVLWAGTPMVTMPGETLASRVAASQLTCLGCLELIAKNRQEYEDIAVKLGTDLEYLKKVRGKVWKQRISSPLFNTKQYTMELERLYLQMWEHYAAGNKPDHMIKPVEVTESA

Set 1
Target: Interferon regulatory factor 7, full length, phosphomimetic (IRF7, Homo sapiens, UniProt Q92985, residues 1-503, S101K/S471D/S472D/S475D/S476D/S477D/S483D/S484D/S487D)
Chain of UniProt Q92985 (whole entry, unmodified, looked up): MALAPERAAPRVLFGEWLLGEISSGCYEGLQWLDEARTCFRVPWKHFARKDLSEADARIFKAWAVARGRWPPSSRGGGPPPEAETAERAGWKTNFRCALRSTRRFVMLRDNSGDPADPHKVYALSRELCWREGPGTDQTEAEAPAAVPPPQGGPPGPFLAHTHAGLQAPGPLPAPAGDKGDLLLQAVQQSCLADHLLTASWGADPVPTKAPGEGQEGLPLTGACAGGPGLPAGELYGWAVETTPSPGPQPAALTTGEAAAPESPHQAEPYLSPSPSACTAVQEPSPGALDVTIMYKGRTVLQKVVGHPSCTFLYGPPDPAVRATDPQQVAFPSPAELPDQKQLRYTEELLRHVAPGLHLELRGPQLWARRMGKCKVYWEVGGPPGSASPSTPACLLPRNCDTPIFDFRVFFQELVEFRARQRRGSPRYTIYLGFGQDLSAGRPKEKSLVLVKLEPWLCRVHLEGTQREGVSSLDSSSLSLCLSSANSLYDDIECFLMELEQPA
Method: protein-binding microarray
Form: double-stranded DNA, one strand shown
Medium: in vitro
Tested at: 250 nM
Notes: 60-bp whole probe
With: salmon DNA 0.4 mg/ml
Baseline: random background probes
Direction: higher = stronger binding
Shared flanks, not repeated: GCCTAGCAC … GTCTTGATTCGCTTGACGCTGCTG
Strand | log fluorescence [z-score]
GACGGTATCGACTATCGGGAGGTGCTA | -0.0613
GACGGACTGGGCTTTCGGGACGTGCTA | -0.787
TCAAAGCTCCTATCTTATACTGTGCTA | -0.0955
GCCGGACTGGACTATCGGGACGTGCTA | -0.826
GACGATTTCGGGACTGGGGACGTGCTA | 0.385
TTAGGACTGCTACCGCTTTAGTGCTAG | -0.265
GACGGTTTCGGTTGCGGGACGTGCTAG | 8.33
GACGGTATGGACTATCGGGACGTGCTA | -0.676

Set 2
Target: Fragile X messenger ribonucleoprotein 1, C-terminal low-complexity region (Fmr1, Mus musculus, UniProt P35922)
Method: RNA Bind-n-Seq
Form: RNA
Medium: in vitro
Tested at: 200 nM
Notes: whole 134-nt RNA, ends assumed
With: 150 mM LiCl
Baseline: input library
Direction: higher = stronger binding
All molecules: 7-deaza-guanosine replaces G
Shared flanks, not repeated: GGGAGUUCUACAGUCCGACGAUC … UGGAAUUCUCGGGUGUCAAGG
Strand | log2 enrichment
CACAGACAACACGCACCCACACAGACACAGAGGGAAGGGGUUGGGAUGGGGACAGGGUGCACAGCAGGGCGGGGUAGGACUCCAGCCCCU | -1.11
AAGUCCUGUGCUACACAUCGUAUGUACCGAAUCGUGUGUGUGUGUGUGUGUGUGUGAAAGUAUUAUGUUACGCCGUUCGGAUCUGCACUU | -0.406
UCCUGUGCUACACAUCGUAUGUACCGAAUCGGGCCCCCCGGGCCCCCCGGGCCCCCCGGAAAGUAUUAUGUUACGCCGUUCGGAUCUGCA | 0.185
UAACUUUAGAGGAGGAUCUGAUGGAUAUGGCAGUGGACGUGGAUUUGAGGAUGGCUAUAAUGGGUAUGGAGGAGGACCUGGAGGUGGCAA | 0.294
AGUCCUGUGCUACACAUCGUAUGUACCGAAUCGGGGUGGGGUGGGGUUUUUUUGGGGAAAGUAUUAUGUUACGCCGUUCGGAUCUGCACU | -0.484
ACCAUGCAGGUGGGCAUCUUUGGGAAGUGGGGCAAGGGGGGGAUAGGGAGGGGGGUAACACUUUGGGAACAGGUAGUCCCAGGUCGUUUC | 1.59
UCCUGUGCUACACAUCGUAUGUACCGAAUCGGGGAAAAAGGGGUUUGGGGUUUUUGGGGAAAGUAUUAUGUUACGCCGUUCGGAUCUGCA | -1.43
CUCAAGUCCUGUGCUACACAUCGUAUGUACCGAAUCGGGAGGGAGGGUUUGGGAAAGUAUUAUGUUACGCCGUUCGGAUCUGCACUUCCA | -0.613

Set 3
Target: ABI1, truncated, D143A, DHFR fusion (Arabidopsis thaliana)
Method: DHFR PCA, deep sequencing
Medium: yeast
Notes: methotrexate growth selection, single substitutions
With: (+)-ABA 710 µM
Baseline: wild-type fitted maximum
Direction: higher = stronger binding
Starting sequence: PYL1, truncated, DHFR fusion (Arabidopsis thaliana); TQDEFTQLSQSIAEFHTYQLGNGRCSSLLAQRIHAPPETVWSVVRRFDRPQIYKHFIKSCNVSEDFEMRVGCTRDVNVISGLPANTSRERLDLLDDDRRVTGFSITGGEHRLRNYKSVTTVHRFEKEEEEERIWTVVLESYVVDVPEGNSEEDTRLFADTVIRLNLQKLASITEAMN; partner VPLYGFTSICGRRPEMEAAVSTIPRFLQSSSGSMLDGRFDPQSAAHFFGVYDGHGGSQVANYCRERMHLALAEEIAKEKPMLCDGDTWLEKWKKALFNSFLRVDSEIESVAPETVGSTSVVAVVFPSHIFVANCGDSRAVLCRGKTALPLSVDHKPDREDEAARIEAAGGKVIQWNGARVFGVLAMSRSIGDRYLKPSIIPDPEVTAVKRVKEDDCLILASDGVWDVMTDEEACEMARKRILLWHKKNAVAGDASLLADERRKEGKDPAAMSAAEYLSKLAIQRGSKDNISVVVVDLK
Substitution | relative binding score [%]
P36S | 96.3
A84P | 21.4
T120R | 8.91
S63P | 114
Y53L | 18.4
L156D | 93.3
E139Y | 103
Q2W | 98.9

Mixed results
Molecule | target | test | test system | how to read | measurement | result
WQMHHDAYYWDHHLH | UDP-N-acetylglucosamine--peptide N-acetylglucosaminyltransferase 110 kDa subunit (OGT, Homo sapiens, UniProt O15294) | phage display binding, phage display panning NGS | peptide | baseline: OGT-panned over input library | log2 fold enrichment | 6.23

Repeated from above (set 3):
Substitution | relative binding score [%]
S63P | 114
E139Y | 103
T120R | 8.91
Y53L | 18.4
